Experimental data collected from several papers.
Each numbered part is a random draw from the data of one study; scales do not carry over between parts.

Study 1
Target: RNA binding protein fox-1 homolog 2, RRM domain, GST-SBP tag (RBFOX2, Homo sapiens, UniProt O43251-10, residues 100-194)
Method: RNA Bind-n-Seq
Form: RNA
Sample: in vitro
Tested at: 365 nM
Setting: natural RNA segment, single round, ends assumed
Baseline: no-protein control
Direction: higher = stronger binding
Constant ends, left off below: GGGAGUUCUACAGUCCGACGAUC … UGGAAUUCUCGGGUGCCAA
Target sequence (chain): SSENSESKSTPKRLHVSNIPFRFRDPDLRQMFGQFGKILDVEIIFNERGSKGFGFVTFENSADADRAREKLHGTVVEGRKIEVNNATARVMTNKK
Strand | RBNS enrichment (R)
CUGACAUGUAACCGUUUUCAGGGAAUGCAGAGGGUGUUAACUAAUAGACAAAACCUUUAUCCCGCGUGCUUUGCUUCACCUUGUGCUAUAUAGCUCUUUGGCUCGUGAAC | 0.301
GGCCAGCUCUCGUCUGCUCUCGCCUUUAUCCUUCUCGGCUGCUGCUCUUCCUCUCCAGAGCCUUGGGAGAAGGACUUUCCCCGGUUGUACUUAAUUGAUUGGUUGUCCCA | 1.29
AAAUUCAGUGAGGCUAAAGGGAUACUUGAAUGUUAUUUUUUUUCUCCUAAGAAAAUGGGAGGCUACAUGCACUGGAUAUGUCCUUGGGAAAAUCUUUGGGGAACAAACUU | 1.1
AGUCUUUUUCUGGUUUUGCUCAAGUUGAAGAAUGCGUGGAGAGUCUUCUGGUGAGACAUCCUCUGUCCCGGGUCCCAUUUCCCCACCUGUAACUGAGGUUAGGAAAAGAU | 0.334
UCUAGGAUGAGACAGAAAAUGAAAGCAUGUUGUUUGCCAGGACACUGUGGGUUUAUAUUGAUGUGUAACAAGUUGAUUUGGAACACUGGACUCUCAUUCUGUUAUUCUGG | 2.14
GUCCCGUAUUUCUCCAUCUCCAGUUCUGGACAGUGCAGGUUGCCAAGAAAAGGGACCUAGCUUAGCCAUGGCCCUGGAGAUGAAGUUACUGAGGCUGAGGGUAGAUGGGU | 0.825
CCUGUAUAUCAUGGUAUCUGUGGGCAUAUGUCUGUUUCUUAUAAAGACACAUAUUUGUGUGUGUAUGUGUGUGUGUGUGUGUGUGUGUGUAUAAGCAUACAUGGGAAUUU | 4
AUCAAGGCGGUAAAUCAAGUGGAAAAAGCGUCGGGUUCAAGGGGAGAACUCUGAUUGUGGGUAAUCCAUAAGCUUCCUCUACAGGCUCCCCGCUUGGUUCUCACUUCUGC | 0.255

Study 2
Target: Interferon regulatory factor 5, full length, phosphomimetic (IRF5, Homo sapiens, UniProt Q13568-2, residues 1-514, K96S/S451D/S453D/S456D/S462D)
Method: protein-binding microarray
Form: double-stranded DNA, one strand shown
Sample: in vitro
Tested at: 250 nM
Setting: 60-bp whole probe
Added: salmon DNA 0.4 mg/ml
Baseline: random background probes
Direction: higher = stronger binding
Constant ends, left off below: GCCTAGCAC … GTCTTGATTCGCTTGACGCTGCTG
Strand | log fluorescence
TTAAGTCTCCTTATCCTTTAGTGCTAG | 0.262 z-score
TCATCTCTGTTTTTGCTACTGTGCTAG | 1.21 z-score
TTAGACCTGAGTCTCGATTAGTGCTAG | 0.431 z-score
GACGGTCTCGGACAGGGGACGTGCTAG | -0.353 z-score
TTAGGTTGCGGGTATCGGTTAGTGCTA | 3.36 z-score
GACGGACTCCTACTGCTGACGTGCTAG | -0.494 z-score
TTAGATTTCGGGTATCGAGTAGTGCTA | 6.14 z-score
TTGGGTCTCGGTCTCGGTTAGTGCTAG | 0.553 z-score
TCATTTTGGTCTTTCTGACTGTGCTAG | 1.63 z-score
TCACTTGTGTTTATTGTACTGTGCTAG | 0.681 z-score
GACGATCTCGGTCTCGGGACGTGCTAG | 0.0244 z-score
TTAGGTATCGACTATCGGATAGTGCTA | 5.21 z-score
TCACACTTGTGTTTGGGACTGTGCTAG | 0.194 z-score
GACGGTTTCGACTTTCGCGACGTGCTA | 6.38 z-score
TTAGATTCCAGACTGGATTAGTGCTAG | -0.0724 z-score
TTAGGTCTCGGACAGGGTTAGTGCTAG | -0.316 z-score
GACGGTTTCCTTTTCCTGTCGTGCTAG | 1.77 z-score
ATCTCACTCTAATCTCACTCTGTGCTA | 0.86 z-score
TTAGGTATCGTCTTTCGGTTAGTGCTA | 8.66 z-score

Study 3
Target: Histone acetyltransferase KAT6A, winged helix 2, GST fusion (KAT6A, Homo sapiens, UniProt Q92794, residues 85-181)
Method: protein binding microarray
Form: double-stranded DNA, one strand shown
Sample: in vitro
Tested at: not given
Setting: 8-mer, flanks averaged, mean of 2 arrays, mostly near background
Baseline: not given
Direction: higher = stronger binding
Target sequence (chain): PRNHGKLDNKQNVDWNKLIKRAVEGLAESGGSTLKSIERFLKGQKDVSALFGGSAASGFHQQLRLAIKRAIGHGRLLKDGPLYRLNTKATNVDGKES
Strand | E-score
TATGTAGA | -0.182
CGTCACAC | -0.0159
TATGTCGA | -0.0293
ACGATACG | -0.105
CAAATGCG | 0.0507
GAATAGCC | -0.071
AATATGGA | -0.12
GTCGGGGA | 0.0706
CACGGTAG | -0.024
ATTGTTGG | 0.0907
CGACGCTC | 0.0417
GCTTAATA | -0.0387
AACGGAAA | -0.0852
TAGCTGCA | -0.112
AATCACAG | 0.0158
CCTATTGA | -0.0525
CAGTAGTA | -0.107
CCATGTAA | -0.209
CAATACGA | 0.00559
GGCAACTA | 0.0775
TAGGCGCA | 0.124
ACTCGCAT | 0.0413
ACCTTTGG | -0.138
CTCGAGAA | 0.0485
TAAATTAA | 0.0988

Study 4
Target: RING finger protein unkempt homolog, zinc fingers 1-6, GST-SBP tag (UNK, Homo sapiens, UniProt Q9C0B0, residues 30-357)
Method: RNA Bind-n-Seq
Form: RNA
Sample: in vitro
Tested at: not given
Setting: RNA with constant flanks, ends assumed
Baseline: input RNA pool
Direction: higher = stronger binding
Constant ends, left off below: GGGAGUUCUACAGUCCGACGAUC … CAACAGAGGAUUGAGCAUCA
Target sequence (chain): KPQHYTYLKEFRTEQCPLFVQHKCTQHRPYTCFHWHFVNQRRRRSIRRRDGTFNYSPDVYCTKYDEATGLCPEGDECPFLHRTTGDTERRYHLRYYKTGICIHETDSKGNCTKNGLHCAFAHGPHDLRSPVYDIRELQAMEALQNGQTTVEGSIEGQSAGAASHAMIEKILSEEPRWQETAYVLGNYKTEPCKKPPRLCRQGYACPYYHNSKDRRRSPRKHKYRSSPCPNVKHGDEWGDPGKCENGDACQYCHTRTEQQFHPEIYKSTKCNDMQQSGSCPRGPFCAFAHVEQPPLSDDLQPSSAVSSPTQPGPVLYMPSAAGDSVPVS
Strand | bound/input enrichment
GAUGGCCUUACUAAGUUUUUUACACCAUCACCUGAUGGUCGCAGAUCACGAGGUGAAAUUACCGACUUUUCAAAGCACUAUCGUCCAAGGAAAAAGGUCUCUCAGAAACAGUCAUGCACU | 0.0979 ratio
AUUCCAUAUUUAUUACGGCUGAGACAAGUUAAGGAUGAAACUCUUCAGGCUGCAGUCCGAGAAAUUUUGGCUUUAAUUGGUUAUGUAGAUCCAGUGAAAGGCAGAGGAAUCCGAAUCCUC | 0.11 ratio
CUGUGUAGUCGCAGUGACACUAUCGAUACUGUUUCUGUGCCUUAUGUUUUUCGGUAUUUUGCCGCUGAACUGGCAGCUAUGAACAUCAAAGUGAAACUGGAUGUUGUUUAACUUGAUGUU | 0.249 ratio
UCUUACACGAUCCAGUCUGAGCUGGGAGACUAUGACCCAGAACUGCACGGCAUGGAUUAUGUCCGUGAUUUUAAACUGGCUCCAAAUCAGACCAAGGAACUUGAAGAAAAGGUCAUGGAA | 0.166 ratio
UAACAUUUUUUUAAAAUAUUGAUUGAUUGAUUGAUUGAUUCUAUGUAUGUGAGUACACUGCCGCUGUACAGAUGGUUGUGAGCCUUCAUGUGGUUGUUGGGGAUUGAAUUUUAGGACCUC | 0.881 ratio
UAACUAAGUGGGCUGUUCAGAAGCUUAGAGGUCAUUUUUUGUAAUUUUCUUUUUAAUUACUUCCGAGAGCUAGGGAUGCAAAUGUUUUCAGUUAGAAAGCCUUUAUUUACUUUUGGAAAU | 3.02 ratio
AAAGGAAUUACCGAACAGCAAAAAGAAGGUCUUGAGAUAGUGAAAAUGGUGAUGAUAUCUUCCGAAGGUGAAGAUGGGUUGGAUGAAAUUUAUUCAUUCAGUGAGAGUCUGAGAAAACUG | 0.424 ratio
GAGAGCCGCCUGUCCUGGUUAGAUGGUUCGGGAUUAGGAUUCUCACUGGAAUACCCCACCAUCCGUUUACAUGCGGUGUCCAGGGAUCCAAACGCUUACCCUCAAGAGCAUUUGUAUGUU | 0.0688 ratio
